# Experimental data gathered from unrelated publications.
# Lines come from different studies, so protocols differ. ± gives the spread as reported.
# Organism: Salmonella typhimurium
Structure (SMILES),test,system,setting,scale,quantity,result
CN(CC(C)(C)C)N=O,"mutagenicity, Ames plate incorporation",TA98,"500 µg/plate, without S9, methanol",,revertant colonies per plate,26 ± 11
O=[N+]([O-])c1ccc(N2CCC(NCCC(O)c3ccc(F)c4ccccc34)CC2)c(C(F)(F)F)c1 (stereo not drawn),"SOS response, SOS/umu test","TA1535/pSK1002, TGA medium","3.05e-05 mg/mL, 4 h, without S9",baseline: untreated,induction factor,0.6
O=NN1CCN(C2CCCC2)CC1,"mutagenicity, Ames plate incorporation",TA1537,"2500 µg/plate, 3 d, without S9, methanol",,revertant colonies per plate,10.3 ± 3
Cc1cc(C(=O)NC(C)(C)COc2cccc3c2C(N)=NS(=O)(=O)N3)cc(C)n1,"Ames test, confirmatory",TA1537,1000 µg/plate,baseline: solvent control,revertant ratio,1.3
Fc1ccc(C2=CCNCC2)cc1,"genotoxicity, SOS/umu test",TA1535/pSK1002,"0.031 mg/mL, 4 h, with S9, full range",,induction factor,0.9
COCCN(CCOC)N=O,"mutagenicity, Ames plate incorporation",TA1535,"50 µg/plate, 3 d, without S9, methanol",,revertant colonies per plate,17 ± 6
CC(=O)N1CCC(C(=O)N2CCN3C(=O)c4cc(-c5ccccc5)ccc4NC(=O)C3C2)CC1 (stereo not drawn),,TA98,"158 µg/plate, with: rat liver S9",,revertants per plate,39.5
O=[N+]([O-])c1ccc(N2CCN(CCC(O)c3ccc(F)cc3)CC2)c(C(F)(F)F)c1 (stereo not drawn),"genotoxicity, SOS/umu test",TA1535/pSK1002,"0.002 mg/mL, 4 h, without S9, full range",,induction factor,1.1
COc1cccc(-c2n[nH]c(SCc3ccccn3)n2)c1OC,"Ames test, plate incorporation",TA100,"2.0 mg/plate, with rat liver S9",,revertant colonies per plate,103

# Repeated from above:
Structure (SMILES),test,system,setting,scale,quantity,result
O=NN1CCN(C2CCCC2)CC1,"mutagenicity, Ames plate incorporation",TA1537,"2500 µg/plate, 3 d, without S9, methanol",,revertant colonies per plate,10.3 ± 3
